Experimental data collected from several papers.
Values joined by “and” are separate records of one study, mostly repeats; a detail may differ. ± marks the error that the study gave.
MAD2L2 R124A: MAD2L2 R124A (Homo sapiens, UniProt Q9UI95)
TEM-1 β-lactamase: TEM-1 β-lactamase (UniProt P62593)
ORF74 whole: ORF74 whole (human herpesvirus 8, UniProt Q98146)
KPC-2: KPC-2 (Klebsiella pneumoniae, UniProt Q9F663)
HCRTR2 del254-292/I293E/K294R/L160H/M161K/Q254E: Orexin receptor type 2 (HCRTR2, Homo sapiens, UniProt O43614, del254-292/I293E/K294R/L160H/M161K/Q254E)
PPIA: PPIA (Homo sapiens, UniProt P62937)
B1: FAM222A 1-150 (Homo sapiens, UniProt Q5U5X8); sequence looked up; chain MLACLQRTQNAPGQHLACPSKSLELRKCEAVASAMHSSRYPSPAELDAYAEKVANSPLSIKIFPTNIRVPQHKHLSRTVNGYDTSGQRYSPYPQHTAGYQGLLAIVKAAVSSSSTAAPAGPAKSVLKSAEGKRTKLSPAAVQVGIAPYPV
B2: FBPA (Plasmodium falciparum, UniProt Q7KQL9); chain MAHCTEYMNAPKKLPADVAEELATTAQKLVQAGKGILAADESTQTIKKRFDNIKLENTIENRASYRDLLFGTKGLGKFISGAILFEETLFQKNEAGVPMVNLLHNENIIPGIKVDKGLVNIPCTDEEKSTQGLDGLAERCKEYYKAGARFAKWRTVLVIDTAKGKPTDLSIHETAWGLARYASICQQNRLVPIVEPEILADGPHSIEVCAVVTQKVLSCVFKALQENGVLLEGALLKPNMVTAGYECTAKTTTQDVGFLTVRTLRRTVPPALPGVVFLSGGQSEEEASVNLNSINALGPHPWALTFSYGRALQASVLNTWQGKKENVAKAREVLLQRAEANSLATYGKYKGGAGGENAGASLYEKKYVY

| Substance | target or system | assay | system | setting | how to read | quantity | result |
| --- | --- | --- | --- | --- | --- | --- | --- |
| SKLIGDPNLEFVAMPALAPPAS (RAN RBM, 166-187) | MAD2L2 R124A | competition with FAM-REV3 peptide, competitor, fluorescence polarisation | peptide | – | – | IC50 | 83 ± 6 µM |
| CDYYAYATFGFTSAAADAKVC (BLIP cyclic peptide (Streptomyces clavuligerus); C-terminal amide, cyclic, disulfide) | TEM-1 β-lactamase | BLI | peptide | – | – | koff | 0.001 s⁻¹ |
| DLDSDDEY (TELO2 488-494 (Homo sapiens); pS491) | PIH1D1 51-180 R163A (Homo sapiens, UniProt Q9NWS0) | ITC | peptide | – | – | Kd | 112000 nM |
| PPBP (Homo sapiens) | ORF74 whole | chemotaxis, Transwell | Jurkat.ORF74 | – | – | pEC50 | 7.91 |
| CAGGIFHSLALKC (BLIP-II cyclic peptide (Streptomyces); C-terminal amide, cyclic, disulfide) | KPC-2 | BLI | peptide | – | – | koff | 0.00031 s⁻¹ |
| rpoN (Escherichia coli, UniProt P24255) | rpoB (Escherichia coli, UniProt P0A8V2) | cryo-EM | – | – | – | binding | binds |
| EDKKIVIMPCKCAPSRQLVQVWLQAKE (REV3L RBM2, 1988-2014 (Homo sapiens)) | MAD2L2 R124A | competition with FAM-REV3 peptide, competitor, fluorescence polarisation | peptide | – | – | IC50 | 1.5 ± 0.03 µM |
| CHLWFTDGVLC (BLIP cyclic peptide (Streptomyces clavuligerus); C-terminal amide, cyclic, disulfide) | KPC-2 | BLI | peptide | – | – | koff | 0.00045 s⁻¹ |
| FAP9 (Chlamydomonas reinhardtii, UniProt A8HME3) | IFT81 (Chlamydomonas reinhardtii, UniProt Q68RJ5) | cross-linking MS | – | hits only | – | interaction screen | cross-linked |
| NLFDDNIDIFADLT (WASHC2A 1261-1274 (Homo sapiens)) | SNX27 K495D (Homo sapiens) | ITC | peptide | – | – | Kd | 58300 ± 1410 nM |
| CDYYAYATFGFTSAAADAKVC (MBP/BLIP cyclic peptide (Streptomyces clavuligerus); cyclic) | KPC-2 | SPR | peptide | – | – | Kd | 390 ± 73 nM |
| IFT25 (Chlamydomonas reinhardtii, UniProt B8LIX8) | IFT74 (Chlamydomonas reinhardtii, UniProt Q6RCE1) | cross-linking MS | – | hits only | – | interaction screen | cross-linked |
| insulin human | – | refers to: CPS1 mRNA | EcoHIV-infected mouse, brain | i.p., dose not given | reference: PBS | fold change | 0.635 |
| Neurotensin | HCRTR2 del254-292/I293E/K294R/L160H/M161K/Q254E | sensor fluorescence, fluorescence imaging | HEK293T | concentration not given, unit not given | reference: baseline | ΔF/F0 | -0.41 and -0.331 and 2.23 and 0.362 and 1.81 and 0.789 and 3.73 and -2.32 |
| NS5A mature (hepatitis C virus, UniProt Q9WMX2) | PPIA | AlphaScreen | CHO | – | reference: CypA control, higher = stronger interaction | specific window | 1.7 fold |
| neuropeptide FF | HCRTR2 del254-292/I293E/K294R/L160H/M161K/Q254E | sensor fluorescence, fluorescence imaging | HEK293T | concentration not given, unit not given | reference: baseline | ΔF/F0 | 0.585 and -0.179 and -1.84 and -5.47 and 0.127 and -0.72 and -2.21 and -2.64 |
| PRTANILKPLMSPPSR (REV3L RBM1, 1872-1887 (Homo sapiens)) | MAD2L2 R124A | competition with FAM-REV3 peptide, competitor, fluorescence polarisation | peptide | – | – | IC50 | 18 ± 2 µM |
| Neuromedin B | HCRTR2 del254-292/I293E/K294R/L160H/M161K/Q254E | sensor fluorescence, fluorescence imaging | HEK293T | concentration not given, unit not given | reference: baseline | ΔF/F0 | 2.49 and 0.914 and 0.0112 and -0.767 and 3.25 and -0.679 and 3.38 and 2.27 |

| Substance | target or system | assay | system | setting | how to read | quantity | result |
| --- | --- | --- | --- | --- | --- | --- | --- |
| B1 (FAM222A 1-150) | MAVS 1-513 (Homo sapiens, UniProt Q7Z434) | pull-down | – | – | – | binding | binds |
| B2 (FBPA) | MTRAP C-terminal cytoplasmic tail (Plasmodium falciparum) | SPR | – | – | – | Kd | 91 nM |
| pertussis toxin | GPR37 (Homo sapiens, UniProt O15354) | osteocalcin-induced calcium increase, inhibitor | HEK293-GCaMP6s cells transfected with GPR37 | concentration not given, added: osteocalcin after pretreatment | – | calcium increase | inhibited |
| brain natriuretic peptide | hly (Staphylococcus aureus, UniProt P09616) | nanopore sensing | – | asymmetric electrolyte | – | dynamic range | 7 orders of magnitude |
| melanin-concentrating hormone | HCRTR2 del254-292/I293E/K294R/L160H/M161K/Q254E | sensor fluorescence, fluorescence imaging | HEK293T | concentration not given, unit not given | reference: baseline | ΔF/F0 | 3.33 and -1.69 and 3.17 and 1.65 and 0.311 and 0.335 and 4.18 and 2.44 |
| PRPRPRPRPRPRPRPRPRPRPRPRPRPRPRPRPRPRPRPRPRPRPRPRPRPRPRPRPRPR (poly-PR 30 repeats) | G3BP1 1-411 (Homo sapiens, UniProt Q13283) | BLI | peptide | – | – | Kd | 8.12 nM |
| NS5B mature (hepatitis C virus) | PPIA | luciferase, two-hybrid | CHO | – | reference: VP16 alone, higher = stronger interaction | specific window | 2.6 fold |
| spn N-terminal deletion (Staphylococcus aureus) | MPO mature, native (Homo sapiens, UniProt P05164) | SPR | – | – | – | kon | 208000 M⁻¹ s⁻¹ |
| GRGRGRGRGRGRGRGRGRGRGRGRGRGRGRGRGRGRGRGRGRGRGRGRGRGRGRGRGRGR (poly-GR 30 repeats) | G3BP1 (Homo sapiens, UniProt Q13283) | BLI | peptide | added: RNA | – | Kd | 0.01 ± 0.008 nM |
| E2F1 fragment V88E | CCNF/SKP1 1-546 (Homo sapiens) | fluorescence polarisation | – | – | reference: wild-type peptide, higher = weaker binding | affinity decrease | 30 fold |
| PLMSPPSREEIMATLLDHD (REV3L RBM1, 1880-1898 (Homo sapiens)) | MAD2L2 R124A | competition with FAM-REV3 peptide, competitor, fluorescence polarisation | peptide | – | – | IC50 | 9.1 ± 0.5 µM |
| IFT27 (Chlamydomonas reinhardtii, UniProt A8HN58) | IFT25 (Chlamydomonas reinhardtii, UniProt B8LIX8) | cross-linking MS | – | hits only | – | interaction screen | cross-linked |
| CDGYSSTGFYRGSAHLWFC (MBP/BLIP cyclic peptide (Streptomyces clavuligerus); cyclic) | TEM-1 β-lactamase | SPR | peptide | – | – | koff | 0.00072 s⁻¹ |
| orexin-B | HCRTR2 del254-292/I293E/K294R/L160H/M161K/Q254E | sensor fluorescence, fluorescence imaging | HEK293T | 10 µM, added: OXB 10 µM | reference: baseline | maximal ΔF/F0 | 840% and 944% and 775% and 897% and 1020% and 828% and 741% |
| CXCL8 (Homo sapiens) | ORF74 whole | competition with anti-ORF74 antibody binding, flow cytometry | HEK293A.ORF74 | – | – | pIC50 | 7.5 |
| CWSEYYPAYC (BLIP cyclic peptide (Streptomyces clavuligerus); C-terminal amide, cyclic, disulfide) | TEM-1 β-lactamase | BLI | peptide | – | – | koff | 0.00034 s⁻¹ |
| CXCL6 (Homo sapiens) | ORF74, C-terminal LgBiT fusion (human herpesvirus 8, UniProt Q98146) | β-arrestin1 recruitment to ORF74, NanoBiT | – | – | – | pEC50 | 8.18 |
| Nociceptin | HCRTR2 del254-292/I293E/K294R/L160H/M161K/Q254E | sensor fluorescence, fluorescence imaging | HEK293T | concentration not given, unit not given | reference: baseline | ΔF/F0 | 0.354 and 0.512 and -1.61 and 0.592 and -1.82 and -1.13 and 1.06 and -0.553 |
